{"data": "Results pooled from the literature", "cell line": "Vero", "note": "Compare with care: the assays were run in different laboratories."}
{"Compound": "COC(=O)c1cccc(-n2nc(C)c3c(C)n(-c4ccc(OC)cc4)nc3c2=O)c1", "effect on": "cell growth or viability", "CC50": "368 µM"}
{"Compound": "CCCCCCCCC1=C(CCCCCCCC(=O)OC)C1", "effect on": "cell growth or viability", "method": "MTS", "time": "24 h", "CC50": "> 1000 µM"}
{"Compound": "CN(C)CCNC(=O)C(Cc1ccccc1)Nc1ccnc2cc(Cl)ccc12 (centres unmarked)", "effect on": "cell growth or viability", "method": "MTT", "time": "48 h", "CC50": "111 µM"}
{"Compound": "Nc1ccc(C(=O)/C=C/c2ccccc2F)cc1", "effect on": "cell growth or viability", "method": "MTT", "time": "72 h", "CC50": "157 µM"}
{"Compound": "CCCCSc1cccc(O)c(=O)c1O", "effect on": "cell growth or viability", "method": "MTS", "time": "24 h", "CC50": "> 100 µM"}
{"Compound": "O=C(C=CC(Cc1ccccc1)Nc1ccnc2cc(Cl)ccc12)NCC(=O)NCc1ccccc1 (centres unmarked)", "effect on": "cell growth or viability", "method": "MTT", "time": "48 h", "CC50": "142 µM"}
{"Compound": "COc1ccc(Nc2c(C#N)cnc3ccc(Cl)cc23)cc1", "method": "resazurin", "time": "72 h", "notes": "10% FBS, no heme", "CC50": "> 100 µM"}
{"Compound": "CC(=O)Oc1cc2c(cc1C(C)C)CC[C@H]1[C@](C)(CN3C(=O)c4c(Cl)c(Cl)c(Cl)c(Cl)c4C3=O)CCC[C@]21C", "effect on": "cell growth or viability", "method": "MTT", "time": "96 h", "CC50": "34 µM"}
{"Compound": "Cc1cc(NCC(=O)C(C)C)c2nc(N3CCOC[C@H]3C)cc(=O)n2c1", "effect on": "cell growth or viability", "method": "CCK-8", "time": "48 h", "CC50": "195 µM"}
{"Compound": "CCOC(=O)C(CC)NC(=O)CN1C(=O)S/C(=C\\c2ccc([N+](=O)[O-])cc2)C1=O (centres unmarked)", "effect on": "cell growth or viability", "method": "resazurin", "time": "72 h", "CC50": "> 100 µM"}
{"Compound": "CCCCNC(=O)CNC(=O)C=CC(Cc1ccccc1)Nc1ccnc2cc(Cl)ccc12 (centres unmarked)", "effect on": "cell growth or viability", "method": "MTT", "time": "48 h", "CC50": "41.1 µM"}
{"Compound": "CCOC(=O)CNC(=O)CN1C(=O)S/C(=C\\c2ccc(OC)c(O)c2)C1=O", "effect on": "cell growth or viability", "method": "resazurin", "time": "72 h", "CC50": "> 100 µM"}
{"Compound": "Cc1ccc(S(=O)(=O)Nn2c3c(cc(-c4nc5ccccc5s4)c2=O)CCCCCC3)cc1", "effect on": "cell growth or viability", "method": "trypan blue", "CC50": "300 µg/mL"}
{"Compound": "CCCCCCSc1ccc(SCCCCCC)c(O)c(=O)c1O", "effect on": "cell growth or viability", "method": "MTS", "time": "24 h", "CC50": "> 100 µM"}
{"Compound": "CCOC(=O)C(NC(=O)CN1C(=O)/C(=C/c2ccc([N+](=O)[O-])cc2)SC1=S)C(C)C (centres unmarked)", "effect on": "cell growth or viability", "method": "resazurin", "time": "72 h", "CC50": "> 100 µM"}
{"Compound": "CC(=O)Nc1cccc(Cn2nc(C)c3c(C)n(-c4ccccc4)nc3c2=O)c1", "effect on": "cell growth or viability", "CC50": "361 µM"}
{"Compound": "CN(C)CCNC(=O)/C=C/C(Cc1ccccc1)Nc1ccnc2cc(Cl)ccc12 (centres unmarked)", "effect on": "cell growth or viability", "method": "MTS", "time": "48 h", "CC50": "33.6 µM"}
{"Compound": "CCCCCCCCC1=C(CCCCCCCC(=O)O)C1", "effect on": "cell growth or viability", "method": "MTS", "time": "24 h", "CC50": "215 µM"}
{"Compound": "COc1ccc(-n2nc3c(=O)n(-c4cccc(C(=O)NC(C)C)c4)nc(C)c3c2C)cc1", "effect on": "cell growth or viability", "CC50": "300 µM"}
{"Compound": "CN[C@H](C)C(=O)N[C@H](C(=O)N1CC[C@@H]2Oc3ccc(OC)c(c3)/C=C\\NC(=O)[C@H](Cc3ccccc3)NC(=O)[C@H]21)C(C)C", "effect on": "cell growth or viability", "method": "MTT", "time": "48 h", "CC50": "165 µM"}
{"Compound": "CCOC(=O)C(C)NC(=O)CN1C(=O)S/C(=C\\c2ccc(F)cc2)C1=O (centres unmarked)", "effect on": "cell growth or viability", "method": "resazurin", "time": "72 h", "CC50": "> 100 µM"}
{"Compound": "O=c1nc(N2CCC(Oc3ccccc3Br)CC2)sc2c([N+](=O)[O-])cc(C(F)(F)F)cc12", "effect on": "cell growth or viability", "CC50": "> 10 µM"}
{"Compound": "CCCCCCCCC1=C(C(CCCCCCC(=O)OC)OC)C1 (centres unmarked)", "effect on": "cell growth or viability", "method": "MTS", "time": "24 h", "CC50": "> 1000 µM"}
{"Compound": "Cc1nn(Cc2cccc(NC(=O)c3ccccc3)c2)c(=O)c2nn(-c3ccccc3)c(C)c12", "effect on": "cell growth or viability", "CC50": "> 1000 µM"}
{"Compound": "CCOC(=O)C(CC)N1CCN(c2nc(=O)c3cc(C(F)(F)F)cc([N+](=O)[O-])c3s2)CC1 (centres unmarked)", "effect on": "cell growth or viability", "CC50": "> 10 µM"}
{"Compound": "Cc1cc(NCC(=O)C(C)(C)C)c2nc(N3CCOC[C@H]3C)cc(=O)n2c1", "effect on": "cell growth or viability", "method": "CCK-8", "time": "48 h", "CC50": "180 µM"}
{"Compound": "O=c1nc(N2CCC(Oc3ccccc3F)CC2)sc2c([N+](=O)[O-])cc(C(F)(F)F)cc12", "effect on": "cell growth or viability", "CC50": "> 10 µM"}
{"Compound": "CCN(CC)CCNC(=O)C(Cc1ccccc1)Nc1ccnc2cc(Cl)ccc12 (centres unmarked)", "effect on": "cell growth or viability", "method": "MTT", "time": "48 h", "CC50": "118 µM"}
{"Compound": "CC[C@H](C)[C@H](NC(=O)[C@@H](C)NC)C(=O)N1CC[C@@H]2Oc3ccc(OC)c(c3)/C=C\\NC(=O)[C@H](C(C)C)NC(=O)[C@H]21", "effect on": "cell growth or viability", "method": "MTT", "time": "48 h", "CC50": "> 400 µM"}
{"Compound": "CCCCSc1ccc(SCCCC)c(O)c(=O)c1O", "effect on": "cell growth or viability", "method": "MTS", "time": "24 h", "CC50": "87.2 µM"}
{"Compound": "CCOC(=O)C(NC(=O)CN1C(=O)N/C(=C\\c2ccc3c(c2)OCO3)C1=O)C(C)C (centres unmarked)", "effect on": "cell growth or viability", "method": "resazurin", "time": "72 h", "CC50": "> 100 µM"}
{"Compound": "Oc1cc(O)cc(Oc2c(O)cc(O)c3c2Oc2c(O)cc4oc5c(Oc6cc(O)cc(O)c6)c(O)cc(O)c5c4c2O3)c1", "effect on": "cell growth or viability", "method": "MTT", "time": "72 h", "CC50": "579 µM"}
{"note": "A few entries again:"}
{"Compound": "CCOC(=O)C(C)NC(=O)CN1C(=O)S/C(=C\\c2ccc(F)cc2)C1=O (centres unmarked)", "effect on": "cell growth or viability", "method": "resazurin", "time": "72 h", "CC50": "> 100 µM"}
{"Compound": "O=c1nc(N2CCC(Oc3ccccc3Br)CC2)sc2c([N+](=O)[O-])cc(C(F)(F)F)cc12", "effect on": "cell growth or viability", "CC50": "> 10 µM"}
{"Compound": "CCCCCCCCC1=C(C(CCCCCCC(=O)OC)OC)C1 (centres unmarked)", "effect on": "cell growth or viability", "method": "MTS", "time": "24 h", "CC50": "> 1000 µM"}
{"Compound": "Cc1nn(Cc2cccc(NC(=O)c3ccccc3)c2)c(=O)c2nn(-c3ccccc3)c(C)c12", "effect on": "cell growth or viability", "CC50": "> 1000 µM"}
{"Compound": "CCOC(=O)C(CC)N1CCN(c2nc(=O)c3cc(C(F)(F)F)cc([N+](=O)[O-])c3s2)CC1 (centres unmarked)", "effect on": "cell growth or viability", "CC50": "> 10 µM"}
